Measurements gathered from unrelated publications.
Numbered parts are unrelated; each lists some results of a single study. Changes are numbered by the printed parent chain.

Block 1 — technique: protein binding microarray; molecule type: double-stranded DNA, one strand shown; matrix: in vitro; concentration: not given; baseline: not given; reading: higher = stronger binding
Target: Histone acetyltransferase KAT6A, winged helix 2, GST fusion (KAT6A, Homo sapiens, UniProt Q92794, residues 85-181)
Setting: 8-mer, flanks averaged, mean of 2 arrays, mostly near background
Residues (chain): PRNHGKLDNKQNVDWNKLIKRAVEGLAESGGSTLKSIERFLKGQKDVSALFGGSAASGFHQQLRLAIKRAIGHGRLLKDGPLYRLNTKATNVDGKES
Oligonucleotide	E-score
AATTTACT	-0.0798
ACTCTGAA	0.0618
CACTACCG	-0.0734
ACAAGCCA	0.105
AATTCCCG	0.14
GTTACGGA	-0.0243
TCATAGCA	0.0357
GGGAGGCA	-0.00444
ACACATCC	0.0579
CGAGCTCC	0.0103
AATCGCCA	0.0349
GCGCGTCA	0.00309
AGGGGGAT	-0.171
ATGCTGCG	0.0123
CGCAGGAC	0.0258
AGGAAAAA	0.137
AAAGACTG	-0.245
TACTCGAA	-0.0724
CGCGGGGA	0.245
ACCACAGA	-0.0697
ATAGGGTG	-0.206
ACCCGGTA	-0.0699
GAATACCA	0.0154
CAAAGAGA	0.17
AGTGCATA	-0.0174

Block 2 — target: CCNE1, cyclin fold, Cln2 fusion (human); technique: yeast growth competition, sequencing; matrix: yeast; setting: weak parent motif; baseline: not given; reading: higher = stronger binding
Starting sequence: SAMHD1 docking peptide (human); ASKSRVQLFKDDP
Substitution	normalised enrichment score
ASKMRVQLFKDDP [S4M]	0.143
ASKSRVQLFKDFP [D12F]	-0.167
ASKSRVQHFKDDP [L8H]	-0.362
AWKSRVQLFKDDP [S2W]	0.342
ASKSREQLFKDDP [V6E]	-0.0973
ASKSRVQLMKDDP [F9M]	0.0222
ATKSRVQLFKDDP [S2T]	0.0371
ASKSRVILFKDDP [Q7I]	-0.23
ASKSRVELFKDDP [Q7E]	-0.274
ASKSRVQLLKDDP [F9L]	0.268
ASRSRVQLFKDDP [K3R]	0.0823
ASKSRVKLFKDDP [Q7K]	0.32
AVKSRVQLFKDDP [S2V]	0.231
ASKSRVQLDKDDP [F9D]	-0.0374
ASKSRVQLFPDDP [K10P]	-0.0749
ASKSRVQLSKDDP [F9S]	0.0585
ARKSRVQLFKDDP [S2R]	-0.165

Block 3 — technique: DHFR PCA, dose-response; matrix: yeast; setting: Hill fit, mean, not affinity; added: (+)-ABA, dose series; reading: lower = more sensitive
Target: ABI1, truncated, D143A, DHFR fusion (Arabidopsis thaliana, UniProt P49597)
Starting sequence: PYL1, truncated, DHFR fusion (Arabidopsis thaliana, UniProt Q8VZS8); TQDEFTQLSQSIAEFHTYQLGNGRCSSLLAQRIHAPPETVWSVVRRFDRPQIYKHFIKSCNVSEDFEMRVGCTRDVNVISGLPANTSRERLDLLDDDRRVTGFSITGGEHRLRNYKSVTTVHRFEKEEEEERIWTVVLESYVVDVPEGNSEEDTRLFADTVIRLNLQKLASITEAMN
Substitution	ABA EC50 [µM]
E67H	3.65
L138I	14
L94N	340
H55M	0.376
D65V	11.1
G148S	11.4
K116A	9.59
T154V	2.37
A13V	4.45
L166M	13.7
S11A	1.51
R32C	4.3
M176L	2.52
C25T	8.47
M68T	8.38
D65E	2.51
R69Q	3.05
A35S	7.02
E127W	4.41
E128M	2.89
S26Y	7.14
D3Y	12.9
V142N	19.6
S27Y	226

Block 4 — technique: RNA Bind-n-Seq; molecule type: RNA; matrix: in vitro; concentration: 1 µM; setting: whole 134-nt RNA, ends assumed; added: 150 mM KCl; baseline: input library; reading: higher = stronger binding
Target: Ras GTPase-activating protein-binding protein 1, C-terminal RGG region (G3BP1, Homo sapiens, UniProt Q13283)
Sequence of UniProt Q13283 (whole entry, looked up): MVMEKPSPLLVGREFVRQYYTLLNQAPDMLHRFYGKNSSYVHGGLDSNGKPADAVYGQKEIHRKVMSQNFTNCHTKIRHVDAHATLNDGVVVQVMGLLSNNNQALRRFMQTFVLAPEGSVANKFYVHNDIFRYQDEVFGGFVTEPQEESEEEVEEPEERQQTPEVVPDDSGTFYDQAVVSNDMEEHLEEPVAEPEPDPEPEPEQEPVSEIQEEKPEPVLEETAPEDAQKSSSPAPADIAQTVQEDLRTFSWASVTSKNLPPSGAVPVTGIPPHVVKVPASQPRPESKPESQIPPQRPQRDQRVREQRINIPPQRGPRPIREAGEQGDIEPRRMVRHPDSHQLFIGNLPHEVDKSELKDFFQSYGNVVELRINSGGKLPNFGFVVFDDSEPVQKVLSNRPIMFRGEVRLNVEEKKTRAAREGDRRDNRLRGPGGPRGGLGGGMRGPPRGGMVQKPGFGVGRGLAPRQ
All sequences stand within: GGGAGUUCUACAGUCCGACGAUC … UGGAAUUCUCGGGUGUCAAGG
Oligonucleotide	log2 enrichment
UCAAGUCCUGUGCUACACAUCGUAUGUACCGAAUCGGGAAGGGGAAGGGAAGGGAAAGUAUUAUGUUACGCCGUUCGGAUCUGCACUUCC	2.6
CCUCAAGUCCUGUGCUACACAUCGUAUGUACCGAAUCGGGUUGGGUUGGUUGGAAAGUAUUAUGUUACGCCGUUCGGAUCUGCACUUCCA	-0.537
UGCCAAAGUAUGGCAAGAAAUUGCUCCUGGAAAUACUGAUGCCACCCCAGUAACUCAUGGAACUGAAAGCUCUUGGCAUGAAAUAGCAGC	-0.142
UCCUGUGCUACACAUCGUAUGUACCGAAUCGGGGUUUUUUUGGGGAGGGGAAAAAGGGGAAAGUAUUAUGUUACGCCGUUCGGAUCUGCA	1.36
UCAAGUCCUGUGCUACACAUCGUAUGUACCGAAUCGGAAAAAAAGGUUUGGAGGAAAGUAUUAUGUUACGCCGUUCGGAUCUGCACUUCC	-1.44
GUCCUGUGCUACACAUCGUAUGUACCGAAUCGGUUUUUGGGGUUUUUGGGGUUUUUGGGAAAGUAUUAUGUUACGCCGUUCGGAUCUGCA	-0.484
AGUCCUGUGCUACACAUCGUAUGUACCGAAUCGGCCCCCGGGGCCCCCGGCCCCCGGAAAGUAUUAUGUUACGCCGUUCGGAUCUGCACU	-1.69
UUCACACCAAGCUGGGGAACAUCAAGACCUUAAACCUGGCAGGCAACCUCCUAGAGAGUCUGAGUGGCCUGCACAAGCUCUACUCACUGG	-1.93
UGGGAGGUGGAUUUUGUUUAUUUUUUUAGCUCAUUUCCAGGGGUGGGAAUUUUUGUUUAAUAUGUGUCAUGAAUAAAGUUGUUUUUGAAA	4.06

Block 5 — technique: protein-binding microarray; molecule type: double-stranded DNA, one strand shown; matrix: in vitro; concentration: 250 nM; setting: 60-bp whole probe; added: salmon DNA 0.4 mg/ml; baseline: random background probes; reading: higher = stronger binding; all sequences stand within: GCCTAGCAC … GTCTTGATTCGCTTGACGCTGCTG
Target: Interferon regulatory factor 7, full length, phosphomimetic (IRF7, Homo sapiens, UniProt Q92985, residues 1-503, S101K/S471D/S472D/S475D/S476D/S477D/S483D/S484D/S487D)
Residues (chain): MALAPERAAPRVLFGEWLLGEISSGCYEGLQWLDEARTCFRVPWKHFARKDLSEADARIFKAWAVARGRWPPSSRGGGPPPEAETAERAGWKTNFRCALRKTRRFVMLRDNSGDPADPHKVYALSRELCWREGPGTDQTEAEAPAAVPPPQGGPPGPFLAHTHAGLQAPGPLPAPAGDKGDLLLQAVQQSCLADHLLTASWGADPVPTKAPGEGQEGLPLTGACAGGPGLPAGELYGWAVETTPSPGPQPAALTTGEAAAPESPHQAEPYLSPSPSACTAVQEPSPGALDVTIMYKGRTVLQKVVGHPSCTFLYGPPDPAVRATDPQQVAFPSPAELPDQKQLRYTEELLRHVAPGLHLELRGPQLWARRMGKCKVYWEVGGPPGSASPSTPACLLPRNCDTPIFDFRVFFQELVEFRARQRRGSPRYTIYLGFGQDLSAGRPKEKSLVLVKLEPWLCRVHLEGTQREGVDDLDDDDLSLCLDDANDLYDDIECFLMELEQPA
Oligonucleotide	log fluorescence
TTTACTTTCTATCTCTGTTTGTGCTAG	2.71 z-score
GACGGACTGCTTATCATGACGTGCTAG	-0.49 z-score
TTAGGACTGGGACTGGGTTCGTGCTAG	-0.444 z-score
GACGGTTTGGGACTGGGGACGTGCTAG	0.0171 z-score
TTAGATTTCAGTCTGGATTAGTGCTAG	-0.0109 z-score
TCATTTCCCAAGTTTATAACTGTGCTA	4.25 z-score
TTAGATATCAGACTGGATTAGTGCTAG	-0.141 z-score
TTATATTTCGGGACTGGATTAGTGCTA	0.86 z-score
CACGGACTGGACTATCGGGACGTGCTA	-0.705 z-score
TTAGGTTTCCTTATCTTTTAGTGCTAG	2.18 z-score
TTACTTCCCAATTGTCTTTTCGTGCTA	2.11 z-score
TCACAAAAATGATTGGTACTGTGCTAG	-0.000547 z-score
TCAAAGCAAAAATGATTACTGTGCTAG	-0.0392 z-score
AATGTTTTGTTTTTCATTATGTGCTAG	2.4 z-score
TCATAATTCACTATTACACTGTGCTAG	0.638 z-score
CCGAGAAACAGTAACCCTCTGTGCTAG	-0.045 z-score
TTAGGTATCGGGTATCGGTAAGTGCTA	1.12 z-score
GACTATATCGGGACTGGAGACGTGCTA	0.192 z-score

Some of these lines once more (block 5):
Oligonucleotide	log fluorescence
TCACAAAAATGATTGGTACTGTGCTAG	-0.000547 z-score
TCAAAGCAAAAATGATTACTGTGCTAG	-0.0392 z-score
AATGTTTTGTTTTTCATTATGTGCTAG	2.4 z-score
TCATAATTCACTATTACACTGTGCTAG	0.638 z-score
CCGAGAAACAGTAACCCTCTGTGCTAG	-0.045 z-score
